Measurements gathered from unrelated publications.
Lines come from different studies, so protocols differ. “And” joins repeats or separate records; there may be more than shown. ± marks the error that the study gave.
DRD3: D(3) dopamine receptor (DRD3, Homo sapiens, UniProt P35462)
Genome polyprotein NS3 helicase domain: Genome polyprotein, NS3 helicase domain (Hepatitis C virus genotype 1b, UniProt Q9WMX2)
Glutamate receptor 2: Glutamate receptor 2 (Homo sapiens, UniProt P42262)
EDNRA: Endothelin-1 receptor (EDNRA, Homo sapiens, UniProt P25101)
WEE1: Wee1-like protein kinase (WEE1, Homo sapiens, UniProt P30291)
KCNQ3/KCNQ2: Voltage-gated potassium channel, KQT; KCNQ2(Kv7.2)/KCNQ3(Kv7.3) (KCNQ3/KCNQ2, Homo sapiens, UniProt O43525+O43526)

The inhibition of Clc1cncc(OC[C@@H]2CN(CCN3CCc4ccccc43)CCO2)c1 is reported as -8.3% (DRD3; radioligand binding; concentration not given, with: [3H]N-methylspiperone).
Under inhibition, NS(=O)(=O)NC[C@@H](CO)NCc1c[nH]c2c(O)nc(O)nc12 is recorded as “inactive” (Hypoxanthine-guanine-xanthine phosphoribosyltransferase (Plasmodium falciparum, UniProt P20035); enzyme activity, inhibitor, coupled IMPDH; up to 100 µM).
O=C(OCc1ccccc1)c1ccccc1O gave a Km of 51.4 ± 10.8 µM (Thuja plicata; enzyme activity, substrate, UPLC-UV/MS; 10 min, pH 7, 25 °C).
CC(C)C[C@H](NC(=O)C[C@H](O)[C@H](CC(C)C)NC(=O)[C@H](Cc1c[nH]cn1)NC(=O)CNC(=O)[C@@H](NC(=O)[C@H](C)NC(=O)[C@H](Cc1c[nH]c2ccccc12)NC(=O)[C@H](CCC(N)=O)NC(=O)[C@@H](Cc1ccccc1)NC(=O)COCCOCCNC(=O)CCC(C(=O)O)N1CCN(CC(=O)O)CCN(CC(=O)O)CCN(CC(=O)O)CC1)C(C)C)C(N)=O (some centres unmarked) [lutetium-177 labelled] has a tissue uptake of 0.7 ± 0.2 %ID/g (BALB/c nu/nu mice, stomach; intravenous, 750 pmol, 1 h, with: PA 300 µg).
With Oc1ccc(-c2nnc(CCCOc3ccc(Cl)cc3Cl)o2)c(F)c1 the inhibition was 48.2 ± 3.4% (dxs (Deinococcus radiodurans, UniProt Q9RUB5); enzyme activity, inhibitor; 60 µM).
Cl.O=C(O)C1=CCCN(CCON=C(c2ccccc2)c2ccccc2)C1 has an inhibition of 1% (Genome polyprotein NS3 helicase domain; DNA binding, inhibitor; hepatitis C virus; 100 µM, with: Cy5-dT15 DNA).
CC[C@H](C)[C@@H]1NC(=O)[C@H](CCCNC(=N)N)NC(=O)[C@H](CCCNC(=N)N)NC(=O)[C@H](CCCCN)NC(=O)CNC(=O)[C@H](CCCNC(=N)N)NC(=O)[C@H]([C@@H](C)O)NC(=O)[C@H](CCCNC(=N)N)NC(=O)[C@H](C(C)C)NC(=O)[C@H](CCCNC(=N)N)NC(=O)[C@@H]2CCCN2C(=O)[C@H]2CCCN2C(=O)[C@H](CCCNC(=N)N)NC(=O)[C@H](CCCNC(=N)N)NC1=O has an inhibition of 25% (human Dicer; pre-miR21 processing, denaturing gel; 100 nM, 90 min, 37 °C).
The inhibition of C=CCNc1ncnc2ccc(Br)cc12 is reported as 0% (Genome polyprotein NS3 helicase domain; DNA binding, inhibitor; hepatitis C virus; 100 µM, with: Cy5-dT15 DNA).
Nc1c(Br)cc(Br)cc1CN[C@H]1CC[C@H](O)CC1 gave an inhibition of 20% (Glutamate receptor 2; ion current, negative allosteric modulator, SyncroPatch patch clamp; HEK293; 30 µM).
The inhibition of CN(C(=O)n1cnc(-c2ccc[n+]([O-])c2)c1)C1CCCCC1 is reported as 4.57% (EDNRA; 10 µM).
FC(F)=Cc1cc(C(F)(F)F)cc(C(F)(F)F)c1: “pseudo-first-order rate constant” 0.5 h⁻¹ (reaction with N-acetyl-lysine, HPLC-MS; pH 10.2, with: N-α-acetyl-lysine).
With Cc1nn(-c2nc3c(F)cc(F)cc3s2)c(O)c1C(c1ccccc1C(F)(F)F)c1c(C)nn(-c2nc3c(F)cc(F)cc3s2)c1O the inhibition was 88.8% (CGAS (Homo sapiens, UniProt Q8N884); enzyme activity, inhibitor, pyrophosphatase-coupled; 100 µM, 1.5 h, with: HT-DNA).
For CCN(CC)c1ccc(C2Nc3ccc(C(=O)c4ccccc4)cc3NC3=C2C(=O)CC(C)(C)C3)cc1 (centres unmarked), the inhibition was 6% (sigma 1 receptor; binding; 10 µM).
The inhibition of CN1CC(Oc2cnc(C#N)cc2-c2ccn3nc(NC(=O)C4CC4)cc3c2)C1 is reported as 9% (Protein kinase C beta type, beta-I isoform (PRKCB, Homo sapiens, UniProt P05771); kinase activity; 1 µM).
Cc1ccc(S(=O)(=O)N(CC#N)C(=O)Cc2cc(C(F)(F)F)cc(C(F)(F)F)c2)cc1: “pseudo-first-order rate constant” 2.6 h⁻¹ (reaction with N-acetyl-lysine, HPLC-MS; pH 10.2, with: N-α-acetyl-lysine).
O=C(O)C1CCCNC1 (racemic) has an inhibition of 0% (Genome polyprotein NS3 helicase domain; DNA binding, inhibitor; hepatitis C virus; 100 µM, with: Cy5-dT15 DNA).
With CC[C@@H]1[C@H](F)C(=O)N[C@@H]1COc1nccc2cc(C(N)=O)c(OC)cc12 the inhibition was 3.2% (WEE1; ATP-site probe binding, ActivX profiling; THP-1 cell lysate; 0.2 mM, Lys2 site).
O=C(NO)c1ccc(CN2CCCCc3ccccc32)c(F)c1 gave an inhibition of 48.8% (sigma-1 receptor; radioligand binding; 10 µM, mean).
With O=C1c2ccccc2CCN1CCCCN1CCN(c2cccc(Cl)c2Cl)CC1 the inhibition was 99.7% (DRD3; radioligand binding; concentration not given, with: [3H]N-methylspiperone).
For O=C(C[C@@H](C(F)F)n1ccc(F)n1)N1CCC(O)(Cn2cnc3c(cnn3-c3ccc(F)cc3)c2=O)CC1, the inhibition was 38.2% and 27.1% (USP7 (Homo sapiens, UniProt Q93009, V517F); enzyme activity, inhibitor; 5 µM).
With CC(C)NCC(O)COc1cccc2ccccc12 (centres unmarked) the inhibition was 38% (KCNQ3/KCNQ2; ion current, antagonist, SyncroPatch patch clamp; HEK293; 30 µM).
For COc1ccc(C2NCCc3cc(O)c(O)cc32)cc1O (centres unmarked), the inhibition was 26.7 ± 2.07% (tyrosinase; enzyme activity, inhibitor; 100 µM, with: levodopa).
The inhibition of COc1cccc(OC[C@@H]2CN(CCN3CCc4ccccc43)CCO2)c1 is reported as 48.2% (DRD3; radioligand binding; concentration not given, with: [3H]N-methylspiperone).
With CCCCCCCCCC1NCCc2cc(O)c(O)cc21 (centres unmarked) the inhibition was 1.76 ± 3.99% (tyrosinase; enzyme activity, inhibitor; 100 µM, with: levodopa).
For CCN(Cc1ccccc1C(F)(F)F)C(=O)C1CCN(S(=O)(=O)c2ccc3[nH]ncc3c2)CC1, the inhibition was 5% (human KATP potassium channel; radioligand binding; 10 µM).
The inhibition of CCCCCCCCCCCCCCC[C@H](O)[C@H](N)CO (racemic) is reported as 4% (Genome polyprotein NS3 helicase domain; DNA binding, inhibitor; hepatitis C virus; 100 µM, with: Cy5-dT15 DNA).
O=C(Nc1cccc2c(=O)cc(-c3nnn[nH]3)oc12)c1ccc(OCCCCc2ccccc2)cc1 has an inhibition of 81.1% and 59.1% and 73.2% and 73.7% and 62.2% and 76.1% (LRRC8A/LRRC8C (Homo sapiens, UniProt Q8IWT6+Q8TDW0, L134K/L136K); ion current, whole-cell patch clamp; LRRC8-/- HCT cells; 3 µM, L134K/L136K mutant, +100 mV).
With CCCN1C[C@H](CSC)C[C@@H]2c3cccc4[nH]cc(c34)C[C@H]21 the inhibition was 4% (Glutamate receptor 2; ion current, negative allosteric modulator, SyncroPatch patch clamp; HEK293; 10 µM).
For c1ccc(OC[C@@H]2CN(CCN3CCc4ccccc43)CCO2)cc1, the inhibition was 72.7% (DRD3; radioligand binding; concentration not given, with: [3H]N-methylspiperone).
CCN1CCN(Cc2ccc(NC(=O)c3ccc(C)c(/C=C/c4cnc5[nH]ccc5c4OC)c3)cc2C(F)(F)F)CC1 has an inhibition of -0.134% (WEE1; A-375; concentration not given).
COc1cc2c(Nc3ccc(Br)cc3F)ncnc2cc1OCC1CCN(C)CC1 gave an inhibition of 35% (IGF1R (Homo sapiens, UniProt P08069); inhibitor, radiometric phosphocellulose; 10 µM, with: ATP 0.2 mM).
With Cn1c(=O)c2[nH]cnc2n(C)c1=O the inhibition was -19% (KCNQ3/KCNQ2; ion current, antagonist, SyncroPatch patch clamp; HEK293; 30 µM).
For CC(=O)SCC[N+](C)(C)C.[Cl-], the inhibition was 0% (Genome polyprotein NS3 helicase domain; DNA binding, inhibitor; hepatitis C virus; 100 µM, with: Cy5-dT15 DNA).
With O=C1NC(=O)C(c2ccccc2)(c2ccccc2)N1 the inhibition was 5% (KCNQ3/KCNQ2; ion current, antagonist, SyncroPatch patch clamp; HEK293; 30 µM).
The inhibition of Cc1cc(-c2ccnc3[nH]cc(F)c23)cc(F)c1[C@@]1(O)[C@H](C)CN(C2CCS(=O)(=O)CC2)C[C@@H]1C is reported as 91.1% (CDK11 and CDK8; ATP probe binding, KiNativ, measured: Lys2 site; HEK293T cell lysate; 10 µM).
For NC/C(=C\F)COc1cccc(Cn2c(=S)[nH]c(=O)c3[nH]cnc32)c1, the inhibition was 27.4% (AOC1 (Homo sapiens, UniProt P19801); enzyme activity, inhibitor; 10 µM).
Nc1ccc(N2C(=O)c3ccccc3C2=O)c(Cl)c1 gave an inhibition of 0% (Genome polyprotein NS3 helicase domain; DNA binding, inhibitor; hepatitis C virus; 100 µM, with: Cy5-dT15 DNA).
COc1cc(NC(C)=O)c(Cl)cc1C(=O)Nc1nccs1 has an inhibition of 28.8% (MTNR1B (Homo sapiens, UniProt P49286); 10 µM).
Cn1cc(-n2cnc3c(NCc4nc5cc(Cl)c(Cl)cc5[nH]4)nc(N4CCOCC4)nc32)cn1 gave an inhibition of 8% (Cyclin-dependent kinase 12, with cyclin K (CDK12, Homo sapiens, UniProt Q9NYV4); kinase activity, inhibitor, ADP-Glo; 0.0027 µM).
The inhibition of Oc1c2ccccc2c2c3c(cccc13)N=N2 is reported as 1% (Genome polyprotein NS3 helicase domain; DNA binding, inhibitor; hepatitis C virus; 100 µM, with: Cy5-dT15 DNA).
CNCc1ccc(-c2cc(-c3nc(-c4ccc(S(=O)(=O)C(C)C)cc4)cnc3N)on2)cc1 gave an inhibition of 5% (Protein kinase C beta type, isoform beta-II (PRKCB, Homo sapiens, UniProt P05771); enzyme activity; 0.4 µM, with: ATP at Km).
The inhibition of CC12CC3CC(C)(C1)CC(N)(C3)C2 is reported as 29% (KCNQ3/KCNQ2; ion current, antagonist, SyncroPatch patch clamp; HEK293; 30 µM).
C[N+]1(C)[C@@H]2C[C@@H](OC(=O)[C@H](CO)c3ccccc3)C[C@H]1[C@@H]1O[C@@H]12 has an inhibition of 0% (Genome polyprotein NS3 helicase domain; DNA binding, inhibitor; hepatitis C virus; 100 µM, with: Cy5-dT15 DNA).
Cn1cc(-c2ccc(-c3cncc(Cl)c3N3CCC4(CCNC4=O)CC3)cc2)cn1 — result for “log2 fold change”: 2.23 (COLO 205; gene expression, microarray, measured: CD55 mRNA; concentration not given, 2 h; relative to: untreated cells).
The inhibition of Clc1cccc(OC[C@H]2CN(CCN3CCc4ccccc43)CCO2)c1 is reported as 40.4% (DRD3; radioligand binding; concentration not given, with: [3H]N-methylspiperone).
CCCCCCCCCCC1NCCc2cc(O)c(O)cc21 (centres unmarked) has an inhibition of -0.37 ± 0.57% (tyrosinase; enzyme activity, inhibitor; 100 µM, with: levodopa).
COc1ccc(CN2C[C@](C)(O)[C@@H]3C[C@H]2[C@@H](C)c2nc4ccccc4c(-c4ccccc4)c23)cc1 has an inhibition of 0% (OPRK1 (Cavia porcellus, UniProt P41144); binding, radioligand binding; guinea pig brain; 1 µM, with: [3H]U-69,593).
For CN1CCN(c2cc(-c3ccncc3)c(-c3ccc4ccccc4c3)nn2)CC1, the inhibition was -26% (EDNRA; antagonist, FLIPR; 10 µM).
CCCCCC1NCCc2cc(O)c(O)cc21 (centres unmarked) has an inhibition of 0.37 ± 1.76% (tyrosinase; enzyme activity, inhibitor; 100 µM, with: L-DOPA substrate).
NCCC[C@H](N)C(=O)O has an inhibition of 70.3% (Cationic amino acid transporter 8 (NPT1, Plasmodium vivax, UniProt A5K9W3); 100 µM).

Some of these lines once more:
For CCN(CC)c1ccc(C2Nc3ccc(C(=O)c4ccccc4)cc3NC3=C2C(=O)CC(C)(C)C3)cc1 (centres unmarked), the inhibition was 6% (sigma 1 receptor; binding; 10 µM).
The inhibition of Clc1cccc(OC[C@H]2CN(CCN3CCc4ccccc43)CCO2)c1 is reported as 40.4% (DRD3; radioligand binding; concentration not given, with: [3H]N-methylspiperone).
Cn1cc(-c2ccc(-c3cncc(Cl)c3N3CCC4(CCNC4=O)CC3)cc2)cn1 — result for “log2 fold change”: 2.23 (COLO 205; gene expression, microarray, measured: CD55 mRNA; concentration not given, 2 h; relative to: untreated cells).
